# Measured values pooled from the literature.
# Lines come from different studies, so protocols differ. ± marks the error that the study gave.
# rep papain-like protease: Replicase polyprotein 1ab, papain-like protease (rep, Severe acute respiratory syndrome coronavirus 2, UniProt P0DTD1)
# rep methyltransferase: Replicase polyprotein 1ab, methyltransferase (rep, Severe acute respiratory syndrome coronavirus 2, UniProt P0DTD1)
# rep main protease: Replicase polyprotein 1ab, main protease (rep, Severe acute respiratory syndrome coronavirus 2, UniProt P0DTD1)
# rep nsp13 helicase: Replicase polyprotein 1ab, nsp13 helicase (rep, Severe acute respiratory syndrome coronavirus 2, UniProt P0DTD1)
# rep nsp16 with nsp10: Replicase polyprotein 1ab, nsp16 with nsp10 (rep, Severe acute respiratory syndrome coronavirus 2, UniProt P0DTD1)
SMILES,target,test,test system,setting,IC50 [nM]
Cc1ccc(OCCN(C)C)cc1C(=O)N[C@H](C)c1cc(-c2cnn(C)c2)cc(-c2cnn(CC(F)(F)F)c2)c1,rep papain-like protease,"enzyme activity, inhibitor, FRET",,,112
CC1CC(c2ccc(C(=O)NS(C)(=O)=O)cc2)=NN1c1ccc(C#N)c(Cl)c1 (stereo not drawn),rep methyltransferase,"enzyme activity, inhibitor",,,1890
Nc1nnc(SC2CC(=O)N(c3cccc4ccccc34)C2=O)s1 (stereo not drawn),rep main protease,"enzyme activity, inhibitor",,20 min preincubation,840 ± 70
Oc1c(Br)cc(Br)c2cccnc12,rep papain-like protease,"enzyme activity, inhibitor, fluorescence polarization",,,6000
CCCCCCCCCCCCC[C@@H](O)Cc1cc(O)cc(O)c1,rep main protease,"enzyme activity, inhibitor",,with preincubation,> 100000
N#Cc1ccccc1CC(N)C(=O)NC(Cc1ccc(Cl)cc1Cl)C(=O)NC(CC(=O)NCCc1ccccc1)Cc1ccc(F)cc1 (stereo not drawn),rep main protease,"enzyme activity, inhibitor, fluorescence",,,500
CCN(CC)S(=O)(=O)c1ccc2nnn(OCc3ccc(C#N)cc3)c2c1,rep main protease,"enzyme activity, inhibitor",,,> 100000
CC1(C)C2CCC(Cn3[se]c4ccccc4c3=O)C1C2 (stereo not drawn),rep main protease,"enzyme activity, inhibitor",,,519
O=C1CC(c2ccccc2)Oc2cc(O[C@@H]3O[C@H](CO)[C@@H](O)[C@H](O)[C@H]3O)ccc21 (stereo partly drawn),rep nsp13 helicase,"helicase unwinding activity, inhibitor",,,70600 ± 3200
CN=c1nc(-c2ccccc2)n(-c2ccccc2)s1,rep methyltransferase,"enzyme activity, inhibitor",,,1500
C[C@@H]1O[C@@H](Oc2cc3c(=O)oc4c(O)c(O)cc5c(=O)oc(c2O)c3c45)[C@H](O)[C@H](O)[C@H]1OC(=O)c1cc(O)c(O)c(O)c1,rep main protease,"enzyme activity, inhibitor",,,2000
CC1=C(c2ccccc2)C1C(=O)NCc1nc(-c2ccc(OC(F)(F)F)cc2)no1 (stereo not drawn),rep main protease,"enzyme activity, inhibitor, FRET",,,19600
CCC(C(=O)Nc1ccc(C)cc1)n1cccc2nc(SCc3ccc(F)cc3)nc1-2 (stereo not drawn),rep papain-like protease,"enzyme activity, inhibitor",,,19800
Cc1cc(C(=O)COn2nnc3ccc(S(C)(=O)=O)cc32)c(C)n1C,rep main protease,"enzyme activity, inhibitor, FRET",,,5020
CCCNC(=O)C1OC1C(=O)NC(C(=O)N1CCCC1C(=O)OC)C(C)CC (stereo not drawn),rep papain-like protease,inhibitor,,,39400
COc1cc(OC)cc(C(=O)N(CCC(=O)N2CCNCC2)Cc2cccc(Cl)c2)c1,"Replicase polyprotein 1ab, nsp3 macrodomain (rep, Severe acute respiratory syndrome coronavirus 2, UniProt P0DTD1)","ADP-ribose binding, inhibitor, fluorescence polarization",,"Mac1 domain, SARS-CoV-2",68000 ± 29800
CN(C)CCCNC(=O)C[C@H](Cc1ccc(F)cc1)NC(=O)[C@@H](Cc1ccc(Cl)cc1Cl)NC(=O)[C@H](N)Cc1ccccc1C#N,rep main protease,"enzyme activity, inhibitor, fluorescence",,,20
NCC(CCC(N)C(=O)O)CC1OC(n2cnc3c(N)ncnc32)C(O)C1O (stereo not drawn),rep nsp16 with nsp10,"nsp10–nsp16 methyltransferase activity, inhibitor, radiometric",SARS-CoV-2,"added: 1.7 µM 3H-SAM, 0.8 µM biotinylated RNA",3400 ± 700
CC(C)C[C@@H]1NC(=O)[C@H](C(C)C)NC(=O)[C@H](C)NC(=O)[C@H](Cc2ccc(O)cc2)NC(=O)[C@H](CCC(N)=O)NC(=O)[C@H](CC(C)C)NC(=O)[C@@H](Cc2ccc(O)cc2)NC(=O)CSC[C@@H](C(N)=O)NC(=O)[C@H](CCC(=O)O)NC(=O)[C@H](CCCNC(=N)N)NC(=O)[C@H](CCCNC(=N)N)NC(=O)[C@H](CCCCN)NC(=O)[C@H](Cc2c[nH]cn2)NC(=O)[C@H](CCCNC(=N)N)NC1=O,rep papain-like protease,"enzyme activity, inhibitor",,,> 10000
O=C(c1ccc([N+](=O)[O-])c(-n2ccnc2)c1)N(c1cccc(Cl)c1)c1nc2ccccc2s1,rep main protease,"Rev-Nluc reporter, inhibitor",,,< 50000
Nc1ncnc2c1ncn2[C@@H]1O[C@H](CSCc2ccc(-c3ccccc3)c(C(=O)O)c2)[C@@H](O)[C@H]1O,rep nsp16 with nsp10,"methyltransferase activity, inhibitor",,"30 min, 30 °C, added: SAM 10 µM",9 ± 0.4
CCOC(=O)CC[C@H](NC(=O)c1ccccc1[Se][Se]c1ccccc1C(=O)N[C@@H](CCC(=O)OCC)C(=O)OCC)C(=O)OCC,rep main protease,"enzyme activity, inhibitor",,,6280
Oc1ccc(/C=N/NC(=S)NC2CCCCC2)cc1,rep main protease,"enzyme activity, inhibitor, FRET",,,32300
COC(=O)C1CCCN1C(=O)CC(O)C(N)Cc1ccccc1 (stereo not drawn),rep papain-like protease,"enzyme activity, inhibitor, FRET",,,850
CC(c1ccccc1Cl)N(C)Cc1cc(O)ccc1Cl (stereo not drawn),rep papain-like protease,"deubiquitinase activity, inhibitor",,added: Ub-AMC 2.5 µM,6580 ± 1680
CCOC(=O)ONC(=O)c1ccc(C(C)(C)C)cc1,rep main protease,"enzyme activity, inhibitor, FRET",,,1460
O=S(=O)(/N=c1/ssc(-c2ccccc2)c1Cl)c1ccccc1,rep main protease,"enzyme activity, inhibitor",,180 min,11900 ± 1800
CC(C)(C)c1ccc(N(C(=O)C(F)Cl)C(C(=O)NCCc2cccnc2)c2cccnc2)cc1 (stereo not drawn),rep main protease,"enzyme activity, inhibitor",,,730
CNC(=O)C[C@H](Cc1ccccc1)NC(=O)[C@@H](Cc1ccc(Cl)cc1Cl)NC(=O)[C@H](N)Cc1ccccc1C#N,rep main protease,"enzyme activity, inhibitor, fluorescence",,,300
O=C(/C=C/c1ccc(O)cc1)OC[C@H]1O[C@@H](Oc2cc(O)c3c(=O)cc(-c4ccc(O)cc4)oc3c2)[C@H](O)[C@@H](O)[C@@H]1O,rep main protease,"enzyme activity, inhibitor",,added: fluorogenic substrate,225000 ± 9550
COC(=O)C[C@H](c1ccc(O)cc1)c1c(O)cc(O)c2c1O[C@H](c1cc(O)c(O)c(O)c1)[C@H](OC(=O)c1cc(O)c(O)c(O)c1)C2,rep main protease,"enzyme activity, inhibitor, FRET",,,5950
[2H]C1([2H])CC[C@@H](C[C@@H](C#N)NC(=O)[C@@H]2[C@@H]3[C@H](CN2C(=O)[C@@H](NC(=O)C(F)(F)F)C(C)(C)C)C3(C)C)C(=O)N1,rep main protease,"enzyme activity, inhibitor",,,41
CC(=O)N[C@@H](Cc1ccc(O)cc1)C(=O)N[C@@H](CCCNC(=N)N)C(=O)N[C@@H](Cc1ccccc1)C(=O)N[C@H]1CCC[C@@H]1C(=O)N[C@@H](CCCNC(=N)N)C(=O)N[C@@H](CC(N)=O)C(=O)N[C@H]1CCC[C@@H]1C(=O)N[C@H](C(=O)N[C@@H](Cc1ccccc1)C(=O)N[C@H]1CCC[C@@H]1C(=O)N[C@@H](Cc1ccccc1)C(=O)N[C@@H](Cc1ccc(O)cc1)C(=O)N[C@H]1CCC[C@@H]1C(=O)N[C@H](C(=O)N[C@@H](CC(=O)O)C(N)=O)[C@@H](C)O)C(C)C,rep main protease,"enzyme activity, inhibitor",,,620
O=C(c1cncc(Br)c1)N1CCN(C(c2ccccc2)c2ccccc2)CC1,rep main protease,"enzyme activity, inhibitor",,,220
COc1ccc(-c2oc3cc(O)cc(O)c3c(=O)c2O)c(OC)c1O,rep main protease,inhibitor,,,840 ± 60
CCC(C(=O)Nc1ccccc1C)n1c(SCc2ccc(F)cc2)nc2cccnc21 (stereo not drawn),rep papain-like protease,"enzyme activity, inhibitor",,,> 20000
C[C@@H]1C[C@H]2[C@@H](C[C@H]1n1[se]c3ccccc3c1=O)C2(C)C,rep main protease,"enzyme activity, inhibitor",,,487
CCN(CC)S(=O)(=O)c1ccc2nnn(OCc3cc(-c4ccccc4OC)no3)c2c1,rep main protease,"enzyme activity, inhibitor",,,> 100000
O=C(NCCc1cccc(F)c1)[C@H](c1cncnc1)N(C(=O)[C@@H](F)Cl)c1ccc(S(F)(F)(F)(F)F)cc1,rep main protease,"enzyme activity, inhibitor",,,14000
C#CCNC(=O)C[C@H](Cc1ccc(F)cc1)NC(=O)[C@@H](Cc1ccc(Cl)cc1Cl)NC(=O)[C@H](N)Cc1ccccc1C#N,rep main protease,"enzyme activity, inhibitor, fluorescence",,,100
O=C(O[C@@H]1Cc2c(O)cc(O)cc2O[C@@H]1c1ccc(O)c(O)c1)c1cc(O)c(O)c(O)c1,rep main protease,inhibitor,,,5890 ± 120
COc1ccc(-c2cc(=O)c3c(O)cc(O)cc3o2)cc1Oc1ccc(-c2cc(=O)c3c(O)cc(O)cc3o2)cc1,rep papain-like protease,"enzyme activity, inhibitor, fluorescence",,pH 8,22800
N#Cc1ccccc1CC(N)C(=O)NC(Cc1ccc(Cl)cc1Cl)C(=O)NC(CC(=O)NCCCCN1CCCC1)Cc1ccc(F)cc1 (stereo not drawn),rep main protease,"enzyme activity, inhibitor, fluorescence",,,20
O=c1c(O[C@@H]2O[C@H](CO)[C@@H](O)[C@H](O)[C@H]2O)c(-c2ccc(O)c(O)c2)oc2cc(O)cc(O)c12,rep nsp13 helicase,ATPase activity,,no nucleic acid,> 30000
O=C(ONC(=O)c1ccccc1)Oc1ccccc1,rep main protease,"enzyme activity, inhibitor, FRET",,,3600
CCOC(=O)/C=C/C(=O)NNC(=O)CCc1ccccc1C(=O)N[C@H](C)c1cccc(-c2ccsc2)c1,rep papain-like protease,"enzyme activity, inhibitor, FRET",,,120
CC[C@@H](C)[C@@H](C(=O)OC)n1[se]c2ccccc2c1=O,rep main protease,"enzyme activity, inhibitor",,,87.6
CN(C)S(=O)(=O)c1ccc2nnn(OCc3cccc4cccnc34)c2c1,rep main protease,"enzyme activity, inhibitor",,,> 100000
